Results from different studies.
Parts stem from different laboratories: compare values within a part only.

Block 1
Target: Microphthalmia-associated transcription factor, full length (MITF, Homo sapiens, UniProt O75030-10, residues 1-413)
Method: protein-binding microarray
Form: hairpin DNA
Medium: in vitro
Concentration: not given
Notes: whole hairpin DNA, median over replicate spots
Relative to: not given
Reading: higher = stronger binding
Endpoint: median fluorescence
CACTTAGCACGTGAGTTTGGTCCTCCAAACTCACGTGCTAAGTGACACTC (5mC at 30): 18000 a.u.
GAGGCCTAGCAAGTGCTGCCTCCTGGCAGCACTTGCTAGGCCTCACACTC: 5300 a.u.
CACTTAGCACGGGATTTTGGTCCTCCAAAATCCCGTGCTAAGTGACACTC (5mC at 33): 12900 a.u.
GAGGCCTAGCCGGTGCTGCCTCCTGGCAGCACCGGCTAGGCCTCACACTC (5mC at 33): 5460 a.u.
GAGGCCTAGCACGTGCCGCCTCCTGGCGGCACGTGCTAGGCCTCACACTC: 24000 a.u.
CACTTAGCACGTGATTTTGGTCCTCCAAAATCACGTGCTAAGTGACACTC (5mC at 8): 17500 a.u.
CACTTAGCACGTGCGTTTGGTCCTCCAAACGCACGTGCTAAGTGACACTC: 20200 a.u.
GAGGCCTACGACGTGCTGCCTCCTGGCAGCACGTCGTAGGCCTCACACTC (5mC at 35): 6590 a.u.
GAGGCCTAGCACCGGCTGCCTCCTGGCAGCCGGTGCTAGGCCTCACACTC (5mC at 31): 5790 a.u.
GAGGCCTAGCACGTGCTGCCTCCTGGCAGCACGTGCTAGGCCTCACACTC (5mC at 36): 20600 a.u.
CACTTAGCAGGTGATTTTGGTCCTCCAAAATCACCTGCTAAGTGACACTC (5mC at 35): 4770 a.u.
GAGGCCTAGCACGCGCTGCCTCCTGGCAGCGCGTGCTAGGCCTCACACTC (5mC at 30): 9970 a.u.
GAGGCCTAGCACGTGCAGCCTCCTGGCTGCACGTGCTAGGCCTCACACTC: 20500 a.u.
GAGGCCTAGCACGGGCTGCCTCCTGGCAGCCCGTGCTAGGCCTCACACTC: 7990 a.u.
GAGGCCTCGCACGTGCTGCCTCCTGGCAGCACGTGCGAGGCCTCACACTC (5mC at 8 36): 17600 a.u.
CACTTTGCACGTGATTTTGGTCCTCCAAAATCACGTGCAAAGTGACACTC: 26500 a.u.
GAGGCCTAGCACGTGCTGCCTCCTGGCAGCACGTGCTAGGCCTCACACTC (5mC at 30): 10600 a.u.
CACTTAGCACGTCGTTTTGGTCCTCCAAAACGACGTGCTAAGTGACACTC: 5260 a.u.

Block 2
Target: Histone acetyltransferase KAT6A, winged helix 1, GST fusion (KAT6A, Homo sapiens, UniProt Q92794, residues 1-85)
Method: protein binding microarray
Form: double-stranded DNA, one strand shown
Medium: in vitro
Concentration: not given
Notes: 8-mer, flanks averaged, mean of 2 arrays, mostly near background
Relative to: not given
Reading: higher = stronger binding
Endpoint: E-score
Residues (chain): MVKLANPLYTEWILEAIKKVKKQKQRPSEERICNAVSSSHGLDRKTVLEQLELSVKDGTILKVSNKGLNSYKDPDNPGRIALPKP
GAGAGGGA: -0.121
ATAACTGC: -0.171
GAGTGAGA: -0.0729
GCGGCACC: 0.399
GTCTACAA: -0.101
ATATTCCC: 0.0597
AAGTTCGG: -0.188
CAACCAGA: -0.241
GGTGATTA: -0.0122
GGACACGA: 0.0799
ACGTATCC: -0.0965
TCGCGAGA: 0.205
ACTTACCA: -0.0671
GATAACCC: -0.0787
AATGCCTA: -0.114
GACTTGCA: -0.148
AACTTAGT: 0.0113
AGAATAGA: -0.162
CGGGCACG: 0.261
GAGAGATC: -0.192
ACGCTGGA: 0.115
CCAGGCTA: -0.219
GACGGTCA: 0.185
CGGAACTA: 0.123

Block 3
Target: RNA binding protein fox-1 homolog 2, RRM domain, GST-SBP tag (RBFOX2, Homo sapiens, UniProt O43251-10, residues 100-194)
Method: RNA Bind-n-Seq
Form: RNA
Medium: in vitro
Concentration: 365 nM
Notes: natural RNA segment, single round, ends assumed
Relative to: no-protein control
Reading: higher = stronger binding
Endpoint: RBNS enrichment (R)
Shared flanks, not repeated: GGGAGUUCUACAGUCCGACGAUC … UGGAAUUCUCGGGUGCCAA
Target sequence (chain): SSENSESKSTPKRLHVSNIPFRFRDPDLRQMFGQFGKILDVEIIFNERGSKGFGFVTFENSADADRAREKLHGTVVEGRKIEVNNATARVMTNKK
CACGUUAUAGUCAAAUGAGUUAGCUGAUGGUUUCUAGAUUUUCUUCCUCUGAACCAUGAUGCAGUAGGUAAGAAGUUAUUAUGCGUAUAUACAUAUAUACAUUCAUAUAC: 0.503
AAACACCUUCUGAUGGAGCUGUUGCCUGCAGGCCACUGGUCUUUGGGAAUUUUCAAUAAAGUGCUUGCGAGGAAUCUCCUAUGACCAUGUGGGGCUGGGUGUGAAAGAGG: 1.77
GGGCAGACUGUUCUCUCAUAGUCUUAUCUGUUUGAAUAUUCCUGGGUAUGACUUUAUGUGUGGCAAAAACCCACAUUACCAAAGUAGUUUUUAACUACUGUAAUUUGUAA: 0.405
UCUGUUUCCCCUUUUUCCUUUUUUUUUUUAAUUAAAGAGCAAAGCUUUUUAUUACUUUGUAAUUUAAAAAACUGAAAAAAAAAAAACUGAAGAACUUUGGGGGGAAUUUU: 0.785
UCCUGGGCACCUCCUCUUUGCCUCCCUCCUGCCCCUUUCCUGCUGGUGGGGGCAGAUCCUGCACACACAGACACAGCGUCUGCCCCCGAGCCAUUCCCUGGAGACCCUGG: 0.875
CAGCUGAGACUGCUGAGUAAUCUGAAGGCGAGAGCAAGGAUAUACCAGCGAGGUCAGCCCCUCUAGAAUGUUUGCUGGAUGGUGGAAGAUGUAAAAUAUUACCUUCUCCC: 0.569
AGCCACACAGCUGCAAAACGUUGAAGAAAAUCAUUGAUGUAUAAAAAUUGCAGUAUCUUUCAAAUCAGUAAAAUGGAUGCUUAUUAUUUAUCUUGUUCUUCAGUUAACAU: 0.503
AGAUCAGGAUUAUUAGUAACAAUUCUAGUUUUUUCCUCCCACCUUCUCCCUCUCCUCUCUCCUCUAUGAUUUUCUCUCUUUCCCCCUCCCUUCCUGUACAUUUUCCUCCA: 1.07
UGGUCAUCGACCUAUUUUUGUUGAAGAAUGAAAGGCAAUGACAAGUUUAACAUAUACAAAUUCGUGAAUUCUUGUUCAUUUUGCAUUCCUGCAGUCAGUGCUAAUCCGUC: 0.338
UUCUGGGACUUGAAAUCAAAUGUUUGGGAAUGGUGCCCUUGGAGGCAACCUCCCAUUUUAGAUGUUUAAAGGACCCUAUAUGUGGCAUUCCUUUCUUUAAACUAUAGGUA: 0.339
CUGCAGAGUCCUUUUCAUGACCUAGGAGGUCUUAUUCAAAGCCCUCAUUGACAGAGGAGGAAACAGGCCAAGGCAGGACAUGGCUGGACCAUGGUGAUACAGCUCUGUGU: 0.335
UUUAUUUUGUGGCUAGAAAGUCAGUUUUGUGUGUUUUUUUUUUUUUUUAUUUGAAGUGCCAAAUUAACUUUAGUCAGAAUGUGAGCAGAUGGCUAAGUUCUCUCCUCCCC: 0.642

Block 4
Target: Ras GTPase-activating protein-binding protein 1, full length (G3BP1, Homo sapiens, UniProt Q13283)
Chain of UniProt Q13283 (whole entry, looked up): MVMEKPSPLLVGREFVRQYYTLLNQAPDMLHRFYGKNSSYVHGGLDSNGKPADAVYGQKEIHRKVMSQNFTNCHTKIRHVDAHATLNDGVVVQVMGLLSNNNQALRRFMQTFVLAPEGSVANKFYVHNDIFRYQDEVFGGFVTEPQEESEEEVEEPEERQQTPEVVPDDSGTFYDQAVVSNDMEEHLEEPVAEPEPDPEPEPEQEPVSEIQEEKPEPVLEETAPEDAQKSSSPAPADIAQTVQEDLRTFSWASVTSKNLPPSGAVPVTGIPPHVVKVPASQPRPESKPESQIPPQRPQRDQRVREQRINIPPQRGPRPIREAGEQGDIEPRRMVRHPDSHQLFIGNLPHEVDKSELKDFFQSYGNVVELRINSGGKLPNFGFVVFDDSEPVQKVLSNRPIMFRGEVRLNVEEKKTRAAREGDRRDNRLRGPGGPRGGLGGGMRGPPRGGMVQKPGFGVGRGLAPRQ
Method: RNA Bind-n-Seq
Form: RNA
Medium: in vitro
Concentration: 200 nM
Notes: whole 134-nt RNA, ends assumed
With: 150 mM KCl
Relative to: input library
Reading: higher = stronger binding
Endpoint: log2 enrichment
Shared flanks, not repeated: GGGAGUUCUACAGUCCGACGAUC … UGGAAUUCUCGGGUGUCAAGG
AAGUCCUGUGCUACACAUCGUAUGUACCGAAUCGGAAAAAAAGGAAAAAAAGGUGGAAAGUAUUAUGUUACGCCGUUCGGAUCUGCACUU: -1.17
GCAGGAAGUAAAAACAAAUGGAAAUGCUUCGGAUAGUGGCAGGGGUGGGGGUUGCUAAGGAAAGGGUGGGAUGGGAGUGGGUAGAGAGUU: 1.24
UGGGAGGUGGAUUUUGUUUAUUAUUUUAGCUCAUUUCCAGGGGUGGGAAUUUUUUUUUAAUAUGUGUCAUGAAUAAAGUUGUUUUUGAAA: 0.226
AAGUCCUGUGCUACACAUCGUAUGUACCGAAUCGGGGUUUUGGUUUUGGUUUUGGGAAAGUAUUAUGUUACGCCGUUCGGAUCUGCACUU: -1.01
UGGCCCUGGUGGCAUGCGGGGAGGAAGAGGUGGCCUCAUGGAUCGUCGUGGUCCCGGUGGAAUGUUCAGAGGUGGCCGUGGUGGAGACAG: 0.217
AAGUCCUGUGCUACACAUCGUAUGUACCGAAUCGGGUUUUUUUGGGAAAGGGAGGGAAAGUAUUAUGUUACGCCGUUCGGAUCUGCACUU: 0.194
CACAGACAACACGCACCCACACAGACACAGAGGGAAGGGGUUGGGAUGGAGACAGGGUGCACAGCAGGGCGGGGUAGGACCCCAGCCCCU: 1.56
AAGUCCUGUGCUACACAUCGUAUGUACCGAAUCGGGAAAGGGAAAGGGAAAAAGGGAAAGUAUUAUGUUACGCCGUUCGGAUCUGCACUU: -0.0945
ACAAGUGGAGGAGAAGAACUUAGAAGAACUAGAGGAGAAAUCUACUACUCCUCCUCCGGCAGAACCUGUUUCUCUGCCACAAGAACCACC: -0.509
CUCAAGUCCUGUGCUACACAUCGUAUGUACCGAAUCGGAAGGGAAGGGAAGGGAAAGUAUUAUGUUACGCCGUUCGGAUCUGCACUUCCA: 0.522

Excerpt of the above (block 2):
AGAATAGA: -0.162
CGGGCACG: 0.261
GAGAGATC: -0.192
ACGCTGGA: 0.115
CCAGGCTA: -0.219
GACGGTCA: 0.185
CGGAACTA: 0.123
